Experimental data gathered from unrelated publications.
Parts stem from different laboratories: compare values within a part only. Substitutions count along the parent as printed.

Block 1 — method: DHFR PCA, deep sequencing; matrix: yeast; with: (+)-ABA 2500 µM; relative to: wild-type fitted maximum; reading: higher = stronger binding; endpoint: relative binding score
Target: ABI1, truncated, D143A, DHFR fusion (Arabidopsis thaliana)
Setting: methotrexate growth selection, single substitutions
Parent: PYL1, truncated, DHFR fusion (Arabidopsis thaliana); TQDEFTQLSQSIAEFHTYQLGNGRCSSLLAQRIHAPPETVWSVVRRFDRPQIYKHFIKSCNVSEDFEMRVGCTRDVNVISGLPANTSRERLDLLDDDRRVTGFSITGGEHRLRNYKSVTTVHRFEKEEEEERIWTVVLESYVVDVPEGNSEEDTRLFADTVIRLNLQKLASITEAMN; partner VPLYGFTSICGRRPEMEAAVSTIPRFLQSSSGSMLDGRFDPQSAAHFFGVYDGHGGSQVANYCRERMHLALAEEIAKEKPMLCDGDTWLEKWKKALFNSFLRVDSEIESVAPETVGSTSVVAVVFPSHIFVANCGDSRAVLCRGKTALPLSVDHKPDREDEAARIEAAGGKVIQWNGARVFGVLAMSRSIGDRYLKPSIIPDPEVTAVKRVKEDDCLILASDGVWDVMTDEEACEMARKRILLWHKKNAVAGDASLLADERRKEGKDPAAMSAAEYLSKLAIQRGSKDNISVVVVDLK
L20A: 98.6%
S150Y: 82.8%
R155I: 96%
F124T: 98.5%
T160C: 95.4%
I57L: 96.8%
E4M: 97.1%
E109G: 97.7%
S42Y: 86.5%
K116H: 96.4%
V136I: 97.6%
F56N: 43.6%
S150I: 85.1%

Block 2 — target: CCND1, cyclin fold, Cln2 fusion (human); method: yeast growth competition, sequencing; matrix: yeast; setting: weak parent motif; relative to: not given; reading: higher = stronger binding; endpoint: normalised enrichment score
Parent: MASTL docking peptide (human); PMIAKNLMCELDE; partner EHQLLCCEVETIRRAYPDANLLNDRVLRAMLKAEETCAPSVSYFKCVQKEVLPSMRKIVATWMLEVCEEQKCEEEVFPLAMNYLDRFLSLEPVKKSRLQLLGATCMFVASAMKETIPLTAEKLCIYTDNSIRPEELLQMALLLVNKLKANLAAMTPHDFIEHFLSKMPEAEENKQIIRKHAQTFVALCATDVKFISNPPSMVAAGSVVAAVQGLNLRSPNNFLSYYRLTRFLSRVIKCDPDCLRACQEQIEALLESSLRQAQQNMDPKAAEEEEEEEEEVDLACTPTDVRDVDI
PMIACNLMCELDE [K5C]: 0.561
PMIAKNLMCELRE [D12R]: -0.0421
PMIAKNLMCEKDE [L11K]: 0.000614
PMIAKNLMCALDE [E10A]: -0.14
PMIDKNLMCELDE [A4D]: -0.115
PMIAKNLCCELDE [M8C]: -0.252
PMIAKNLMCELIE [D12I]: -0.44
PMIVKNLMCELDE [A4V]: 0.139
PMIAKNCMCELDE [L7C]: 0.116
PMIAKNLYCELDE [M8Y]: 0.258
PMISKNLMCELDE [A4S]: 0.111
PMIAKQLMCELDE [N6Q]: -0.0621
PMIAKNLLCELDE [M8L]: 0.268
PMINKNLMCELDE [A4N]: 0.434
PMIAKRLMCELDE [N6R]: -0.15
PMIAKFLMCELDE [N6F]: -0.0554
PMIAKNPMCELDE [L7P]: -0.0593
PMIAKILMCELDE [N6I]: 0.169
PSIAKNLMCELDE [M2S]: 0.499
PMIAKMLMCELDE [N6M]: 0.299

Block 3 — target: BATF2, bZIP domain (human); method: DHFR protein complementation; matrix: yeast; relative to: wild-type JUN-FOS pair; reading: higher = stronger binding; endpoint: binding fitness
Setting: single substitutions, most at no-binding floor
Parent: JUN, bZIP domain (human); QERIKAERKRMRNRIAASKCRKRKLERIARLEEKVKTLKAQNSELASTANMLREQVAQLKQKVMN; partner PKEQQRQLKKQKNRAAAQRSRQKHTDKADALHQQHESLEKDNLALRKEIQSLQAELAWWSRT
L38C: -1.14 natural log
A57W: -0.488 natural log
S43T: -0.144 natural log
Q55Y: -1.04 natural log
E44F: -0.598 natural log
N42Y: -1.14 natural log
K36N: -0.231 natural log
S47N: -0.175 natural log
T48F: -0.286 natural log
S47P: -1.42 natural log
E54C: -0.814 natural log

Single results of other studies
PhoQ, residues 284 288 289 292 302 303 NLCILV  fold induction (PhoP, residues 12 14 15 18 19 QWHVF (Escherichia coli, UniProt P23836); Sort-seq, item: YFP reporter; E. coli; PhoQ-PhoP variant library, with: 10 µM Mg2+; relative to: high Mg2+ state, higher = stronger signaling): 24

Repeated from above (block 2):
PMIAKNLLCELDE [M8L]: 0.268
PMIAKNLCCELDE [M8C]: -0.252
PMIACNLMCELDE [K5C]: 0.561
PSIAKNLMCELDE [M2S]: 0.499
PMIAKRLMCELDE [N6R]: -0.15
PMIAKMLMCELDE [N6M]: 0.299
